Published values of several laboratories.
Compare with care: the assays were run in different laboratories. ± marks the error that the study gave.

Substance	test	system	conditions	how to read	measurement	result
CC(C)(O)CNc1nc(Nc2ccnc(C(F)(F)F)c2)nc(-c2cccc(C(F)(F)F)n2)n1		human patients	oral, 100 mg once daily, cycle 1 days 1 and 8, added: induction chemotherapy		mean Cmax	1410 ng/mL
Cn1c(-c2ccc(C(N)=O)cc2F)nnc1C(C)(C)Oc1c(F)cc(Cl)cc1F		young non-Japanese humans, plasma	oral, 2 mg once daily, last day of 14 days		mean half-life	3.59 days
colistin B methanesulfonate	one-compartment PK model	rat	i.p., 20 mg/kg colistin base activity		absorption rate constant	1.2 ± 0.253 h⁻¹
CCCC[C@@H]1NC(=O)[C@@H](NC(=O)[C@H](CCC(=O)O)NC(=O)CNC(=O)CN2CCN(CC(=O)O)CCN(CC(=O)O)CCN(CC(=O)O)CC2)CCCCNC(=O)C[C@@H](C(N)=O)NC(=O)[C@H](C(C)C)NC(=O)[C@@H]2CCCN2C(=O)[C@H](CCCNC(=N)N)NC(=O)CNC(=O)[C@H](Cc2c[nH]c3ccccc23)NC(=O)[C@H](CCCNC(=N)N)NC(=O)[C@@H](Cc2ccccc2)NC(=O)[C@H](Cc2c[nH]cn2)NC(=O)[C@H](CCC(=O)O)NC1=O [indium-111 labelled]		C57 mice, B16/F10 lung metastatic melanoma, pancreas	intravenous, 0.037 MBq, 4 h		tissue uptake	0.1 ± 0.07 %ID/g
CS(=O)(=O)OCCCCOS(C)(=O)=O	mitochondrial swelling	BALB/cByJ female mouse liver mitochondria	30 min, added: succinate + rotenone	reference: CaCl2 maximal swelling	EC20	> 800 µM
CCc1oc2ccc(OC)cc2c1C(=O)c1ccc(O)cc1	metabolic stability	Sprague-Dawley rat, liver microsomes	1 µM, pH 7.4		microsomal CLint	61.6 µL/min/mg
CCCC(CCC)C(=O)O	regression tree, refers to: hearing loss	human, plasma	intravenous, dose not given		AUCinf breakpoint	> 3870 µg·h/mL
[2H]C([2H])([2H])Oc1cc2c(cc1OC([2H])([2H])[2H])C1CC(=O)C(CC(C)C)CN1CC2 (stereo not shown)	refers to: deuterated β-HTBZ	healthy human volunteers, plasma	oral, 18 mg single dose, standard meal		dose-normalized AUC(0-inf)	5.47 ng·h/mL
CC(C)C(=O)Nc1ccc([N+](=O)[O-])c(C(F)(F)F)c1	cytochrome c release, ELISA	BALB/cByJ female mouse liver mitochondria	30 min	reference: alamethicin maximal release	EC20	> 400 µM
CC(C)(C)NC(=O)[C@@H]1C[C@@H]2CCCC[C@@H]2CN1C[C@@H](O)[C@H](Cc1ccccc1)NC(=O)[C@H](CC(N)=O)NC(=O)c1ccc2ccccc2n1	USP dissolution apparatus II	distilled water	concentration not given, 120 min, pH 6.5, 37 °C		drug released	~20%
COc1cccc(N2CCN(C3=Nc4c(F)cccc4[C@H](CC(=O)O)N3c3cc(C(F)(F)F)ccc3OC)CC2)c1	UHPLC-MS/MS	healthy women, plasma	intravenous infusion, 240 mg single dose, 30 min infusion, HPβCD formulation		AUC(0-last)	32500 ± 9280 ng·h/mL
CN[C@H]1CN(c2ccc3c(=O)c(C(=O)O)cn(-c4nccs4)c3n2)C[C@@H]1OC		human patients, plasma	intravenous, 9 to 50 mg/m^2 twice weekly, day 4, cycle 1, mean, noncompartmental		Vss	145 L
Cn1cnc2c(F)c(Nc3ccc(Br)cc3Cl)c(C(=O)NOCCO)cc21		ESRD on hemodialysis, plasma	oral, 50 mg single dose, dosed after dialysis		AUC	1880 ng·h/mL
COc1cc(/C=C/C(=O)OC2C(O)CC(O)(C(=O)O)CC2O)ccc1O (stereo not shown)		human, fasted baseline, cerebrospinal fluid			mean concentration	1.8 nM
COc1cccc(OCCCN)c1-c1cc(Nc2cnc(C#N)cn2)n[nH]1		human, plasma	intravenous, 105 mg/m², patients, infusion		Vd	1380 L
OC(Cn1cncn1)(Cn1cncn1)c1ccc(F)cc1F	mitochondrial swelling	BALB/cByJ female mouse liver mitochondria	30 min, added: succinate + rotenone	reference: CaCl2 maximal swelling	EC20	> 400 µM
